Results gathered from unrelated publications.
Compare with care: the assays were run in different laboratories. ± gives the spread as reported. Where no end group is shown, it is not given here.
B1: UGT1A9 (Homo sapiens, UniProt O60656); chain GKLLVVPMDGSHWFTMRSVVEKLILRGHEVVVVMPEVSWQLGRSLNCTVKTYSTSYTLEDLDREFKAFAHAQWKAQVRSIYSLLMGSYNDIFDLFFSNCRSLFKDKKLVEYLKESSFDAVFLDPFDNCGLIVAKYFSLPSVVFARGILCHYLEEGAQCPAPLSYVPRILLGFSDAMTFKERVRNHIMHLEEHLLCHRFFKNALEIASEILQTPVTEYDLYSHTSIWLLRTDFVLDYPKPVMPNMIFIGGINCHQGKPLPMEFEAYINASGEHGIVVFSLGSMVSEIPEKKAMAIADALGKIPQTVLWRYTGTRPSNLANNTILVKWLPQNDLLGHPMTRAFITHAGSHGVYESICNGVPMVMMPLFGDQMDNAKRMETKGAGVTLNVLEMTSEDLENALKAVINDKSYKENIMRLSSLHKDRPVEPLDLAVFWVEFVMRHKGAPHLRPAAHDLTWYQYHSLDVIGFLLAVVLTVAFITFKCCAYGYRKCLGKKGRVKKAHKSKTH

TDVDHVALRF-NH2 (C-amide) — inhibition (Drosophila melanogaster; gut contraction; wandering third instar larval gut; injection, 1 µM, within 10 min; relative to: DMS effect): 10%
CTCATACTGA — log2 fold change (Salmonella enterica Typhimurium; RNA-seq, refers to: fabF mRNA; peptide, SL1344; 5 µM, 15 min; relative to: untreated): -1.9
TDVDHAFLRF-NH2 (C-amide) — inhibition (Drosophila melanogaster; heart rate; wandering third instar larval heart; 40 nL injected, 1 µM, 10 min; relative to: DMS): 55%
SQSVLYS — inhibition (peptide, human polyclonal IgM RF MCC; concentration not given, 5 µg/mL mAb II-481 coated, with: RF at 50% max binding concentration): 0%
CC1(C)CC[C@]2(C(=O)O)CC[C@]3(C)C(=CC[C@@H]4[C@@]5(C)CC[C@H](OC(=O)CCC(=O)O)[C@@](C)(COC(=O)CCC(=O)O)[C@@H]5CC[C@]43C)[C@@H]2C1 — selectivity index (Leishmania mexicana; RAW264.7, axenic amastigotes; relative to: RAW ED50 over amastigote ED50): > 10
CCCN(CCC)CCCOc1ccc2c(=O)c3c(F)cc(F)cc3[nH]c2c1 — fully protective curative dose (Plasmodium berghei; male C57BL/6 albino mouse; oral, liver stage, luciferase sporozoites): 10 mg/kg
CCCCc1cc2c(=O)c(I)c[nH]c2cc1OCCOc1ccccc1 — parasitemia inhibition (Plasmodium berghei; mouse; oral, 50 mg/kg, day 6, single dose in PEG400; relative to: untreated): 19.6%
CARLSLSWRGLTLCPSK (68Ga-DOTA-labelled) — uptake (mouse VAP-1; ex vivo biodistribution; peptide, wild-type mouse, B16 melanoma xenograft, muscle; 60 min, with: 500-fold excess unlabelled DOTA-peptide): 0.03 SUV
Cc1ncnc2c1c(C1=CCOCC1)cn2[C@@H]1O[C@H](CO)[C@@H](O)[C@H]1O — EC50 (Leishmania infantum; parasite growth, imaging; mouse Macrophage; 5 days, intracellular, amastigote): 2450 nM
Nisin A — inhibition zone diameter (Lactococcus lactis; deferred antagonism overlay; 90869, GM17 agar; concentration not given, produced by spotted strain): 7.5 ± 0.38 mm
COc1cccc(/C=C/c2nc3ccc(N4CCCCC4)cc3c(=O)n2-c2cccc(C(C)(C)C)c2)n1 — inhibition (Zika virus; viral replication, inhibitor; Vero; 3 µM): > 99.9%
CC(C)S(=O)(=O)n1c(N)nc2ccc(/C(=N/O)c3ccccc3)cc21 — EC90 (Enterovirus D68; virus yield reduction; RD, US/KY/14-18953; 72 h): 610 ± 80 nM
LSTFFRLFN — biofilm growth (Streptococcus gordonii; OD600; peptide, ATCC 10558, 4 h single-species biofilm; 128 µg/ml, 5 min exposure, OD600 read over 5 h): no effect
O=C(Nc1ccc(F)c(-c2nc3cc(-c4ccccc4)cnc3[nH]2)c1)N1CCCC1 — EC90 (Trypanosoma brucei brucei; parasite growth, Alamar Blue; BF427 bloodstream form): 2 nM
CC1(C)S[C@@H]2[C@H](NC(=O)[C@H](N)c3ccc(O)cc3)C(=O)N2[C@H]1C(=O)O — susceptible isolates (Streptococcus pyogenes; hospitalized pneumonia patients, clinical isolates; Fine score 70 or more): 100%
CC(C)(C)c1cccc(-n2c(/C=C/c3ccc(C(F)(F)F)nc3)nc3ccc(N4CCCCC4)cc3c2=O)c1 — inhibition (Zika virus; viral replication, inhibitor; Vero; 10 µM): 99%
CO/N=C1\C[C@]2(C[C@@H]3C[C@@H](C/C=C(\C)C[C@@H](C)/C=C/C=C4\CO[C@@H]5[C@H](O)C(C)=C[C@@H](C(=O)O3)[C@]45O)O2)O[C@H](/C(C)=C/C(C)C)[C@H]1C — faecal egg count reduction (Haemonchus contortus; multidrug resistant, sheep; subcutaneous, 0.2 mg/kg, day 6 post-treatment, with: closantel 5 mg/kg): 93%
TDADHVFLRF-NH2 (C-amide) — inhibition (Drosophila melanogaster; heart rate; adult heart; 40 nL injected, 1 µM, 10 min; relative to: DMS): 73%
GACATACTCT — log2 fold change (Salmonella enterica Typhimurium; RNA-seq, refers to: acpP mRNA; peptide, SL1344; 5 µM, 15 min; relative to: untreated): -1.6
B1 (UGT1A9) — Vmax/Km (O=c1cc(-c2ccccc2O)oc2cc(O)cc(O)c12; steady-state kinetics; pH 7.4, 37 °C): 3750 µL/min/mg
CC[C@H]1OC(=O)[C@H](C)[C@@H](O[C@H]2C[C@@](C)(OC)[C@@H](O)[C@H](C)O2)[C@H](C)[C@@H](O[C@@H]2O[C@H](C)C[C@H](N(C)C)[C@H]2O)[C@](C)(O)C[C@@H](C)CN(C)[C@H](C)[C@@H](O)[C@]1(C)O — susceptible isolates (Streptococcus pyogenes; hospitalized pneumonia patients, clinical isolates; Fine score 70 or more): 100%
TDVDHVFARF-NH2 (C-amide) — inhibition (Drosophila melanogaster; heart rate; wandering third instar larval heart; 40 nL injected, 1 µM, 10 min; relative to: DMS): 55%
GAGUUGAGUUGAGUUGAGUUGAGUUGAGUUGAGUUGAGUUGAGUUGAGUUGAGUU (ssRNA; single strand) — Kd (mtrB full length assumed T30S (Bacillus subtilis, UniProt P19466); filter binding; with: L-tryptophan 1 mM): 1 ± 0.5 nM
NC(=O)c1ncn([C@@H]2O[C@H](CO)[C@@H](O)[C@H]2O)n1 — EC90 (Enterovirus D68; virus yield reduction; RD, US/KY/14-18953; 72 h): 93000 ± 23000 nM
GKVKVGVNGFGRIGRLVTRAAFNSGKVDIVA — LDH release (Candida albicans SC5314; epithelial damage; peptide, TR146; 5 µg/mL, 24 h; relative to: untreated infected): decreased
Cc1cc(C(C#N)c2ccc(Cl)cc2)c(Cl)cc1NC(=O)c1cc(I)cc(I)c1O (centres unmarked) — faecal egg count reduction (Haemonchus contortus; multidrug resistant, sheep; subcutaneous, 5 mg/kg, day 2 post-treatment, with: moxidectin 0.2 mg/kg): 85%
CNC(C)C1CCC(N)C(OC2C(N)CC(N)C(OC3OCC(C)(O)C(NC)C3O)C2O)O1 (centres unmarked) — inhibition zone (Micrococcus luteus; microbial growth, disc diffusion; IFO3232; 100 µg/disc, 24 h): 18 mm
CS(=O)(=O)c1ccc(-c2cnc(N)c(-c3ccc(C(F)(F)F)nc3)c2)cc1 — IC50 (Plasmodium cynomolgi; hypnozoite development; primary rhesus hepatocytes; day 0, added at 3 h): 61 nM
NYLAWYQ — inhibition (peptide, human polyclonal IgM RF SOR; concentration not given, 5 µg/mL mAb II-481 coated, with: RF at 50% max binding concentration): 45%
TDVDAVFLRF-NH2 (C-amide) — inhibition (Drosophila melanogaster; heart rate; adult heart; 40 nL injected, 1 µM, 10 min; relative to: DMS): 76%
CN(C)CCSc1nnc(C23CC4CC(CC(C4)C2)C3)n1C — inhibition zone (Micrococcus luteus; microbial growth, disc diffusion; IFO3232; 200 µg/disc, 24 h): 10 mm
TDVAHVFLRF-NH2 (C-amide) — inhibition (Drosophila melanogaster; gut contraction; adult gut; 1 µM, within 10 min; relative to: DMS effect): 91%
COc1cc(-c2oc3cc(O)cc(O)c3c(=O)c2O)ccc1O — inhibition (Human immunodeficiency virus 1; viral replication, inhibitor; TZM-bl, NL43; 11.1 µM): > 50%
TDVDHVFLAF-NH2 (C-amide) — inhibition (Drosophila melanogaster; heart rate; wandering third instar larval heart; 40 nL injected, 1 µM, 10 min; relative to: DMS): 55%
COc1ccc(-c2nc(N3CCOCC3)c3sc(CN(C)c4ncc(C(=O)NO)cn4)cc3n2)cn1 — potency ratio (Lucilia cuprina; larval growth; relative to: diflubenzuron and dicyclanil, fold less potent): 50 to 100 fold

Repeated from above:
GACATACTCT — log2 fold change (Salmonella enterica Typhimurium; RNA-seq, refers to: acpP mRNA; peptide, SL1344; 5 µM, 15 min; relative to: untreated): -1.6
B1 (UGT1A9) — Vmax/Km (O=c1cc(-c2ccccc2O)oc2cc(O)cc(O)c12; steady-state kinetics; pH 7.4, 37 °C): 3750 µL/min/mg
